Published values collected from several papers.
Compare with care: the assays were run in different laboratories. Values joined by “and” are separate records of one study, mostly repeats; a detail may differ. Numbers after ± are the reported error.
F-box only protein 22: F-box only protein 22 (Homo sapiens, UniProt Q8NEZ5)
UniProt Q8NEZ5, sequence (whole entry, looked up): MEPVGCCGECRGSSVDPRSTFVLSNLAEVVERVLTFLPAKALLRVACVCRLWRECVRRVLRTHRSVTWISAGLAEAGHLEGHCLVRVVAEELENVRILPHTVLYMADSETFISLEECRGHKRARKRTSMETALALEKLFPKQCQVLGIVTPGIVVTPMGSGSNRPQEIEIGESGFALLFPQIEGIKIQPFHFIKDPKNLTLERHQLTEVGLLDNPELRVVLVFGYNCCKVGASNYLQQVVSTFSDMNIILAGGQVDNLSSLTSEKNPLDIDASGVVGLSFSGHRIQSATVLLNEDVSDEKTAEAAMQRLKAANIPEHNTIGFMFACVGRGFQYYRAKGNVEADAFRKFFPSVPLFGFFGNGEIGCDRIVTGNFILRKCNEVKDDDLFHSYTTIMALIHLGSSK
LRP6 E1 domain: Low-density lipoprotein receptor-related protein 6, E1 domain (LRP6, Homo sapiens, UniProt O75581)
UniProt O75581, sequence (whole entry, looked up): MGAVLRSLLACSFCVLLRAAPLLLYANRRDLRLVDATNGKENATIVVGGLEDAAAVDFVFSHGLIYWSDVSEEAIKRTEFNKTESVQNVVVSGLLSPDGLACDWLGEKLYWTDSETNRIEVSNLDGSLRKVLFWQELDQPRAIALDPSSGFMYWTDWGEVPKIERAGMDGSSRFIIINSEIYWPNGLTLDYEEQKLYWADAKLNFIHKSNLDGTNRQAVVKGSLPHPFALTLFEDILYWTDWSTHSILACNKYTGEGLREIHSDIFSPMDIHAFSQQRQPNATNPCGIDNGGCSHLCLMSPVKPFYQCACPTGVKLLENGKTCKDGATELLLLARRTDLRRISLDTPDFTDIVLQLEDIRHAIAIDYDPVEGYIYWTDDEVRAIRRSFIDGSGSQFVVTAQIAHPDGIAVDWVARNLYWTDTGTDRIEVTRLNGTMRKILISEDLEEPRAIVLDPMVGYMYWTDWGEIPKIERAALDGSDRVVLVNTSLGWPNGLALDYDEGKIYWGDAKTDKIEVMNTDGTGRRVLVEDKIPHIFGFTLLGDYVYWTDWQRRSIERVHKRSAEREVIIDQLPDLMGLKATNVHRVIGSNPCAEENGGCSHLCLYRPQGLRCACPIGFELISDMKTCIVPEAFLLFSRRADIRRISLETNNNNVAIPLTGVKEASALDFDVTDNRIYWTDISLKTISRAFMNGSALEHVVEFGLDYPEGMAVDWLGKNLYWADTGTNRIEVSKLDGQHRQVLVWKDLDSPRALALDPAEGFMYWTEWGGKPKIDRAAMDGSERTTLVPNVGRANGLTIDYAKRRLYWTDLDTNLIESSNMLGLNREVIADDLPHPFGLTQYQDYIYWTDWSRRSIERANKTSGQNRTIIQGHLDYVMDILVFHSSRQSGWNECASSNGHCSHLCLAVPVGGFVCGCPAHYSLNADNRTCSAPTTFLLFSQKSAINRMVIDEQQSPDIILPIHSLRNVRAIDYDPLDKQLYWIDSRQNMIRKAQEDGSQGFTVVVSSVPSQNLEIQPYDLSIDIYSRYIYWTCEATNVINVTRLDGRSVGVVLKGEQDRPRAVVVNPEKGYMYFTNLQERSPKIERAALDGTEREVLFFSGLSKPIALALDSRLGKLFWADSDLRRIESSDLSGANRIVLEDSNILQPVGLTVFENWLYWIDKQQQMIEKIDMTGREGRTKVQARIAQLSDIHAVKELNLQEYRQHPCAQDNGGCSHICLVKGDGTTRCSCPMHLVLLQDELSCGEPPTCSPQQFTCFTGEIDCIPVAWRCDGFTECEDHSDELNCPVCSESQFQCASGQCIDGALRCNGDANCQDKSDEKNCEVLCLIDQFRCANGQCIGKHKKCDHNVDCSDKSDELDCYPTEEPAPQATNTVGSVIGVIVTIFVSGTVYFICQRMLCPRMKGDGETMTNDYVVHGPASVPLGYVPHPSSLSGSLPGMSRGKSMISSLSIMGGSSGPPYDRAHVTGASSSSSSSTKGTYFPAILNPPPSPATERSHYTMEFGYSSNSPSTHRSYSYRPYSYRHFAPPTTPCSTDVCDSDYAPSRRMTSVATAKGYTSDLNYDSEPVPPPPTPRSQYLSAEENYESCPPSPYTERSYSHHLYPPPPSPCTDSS
YWHAZ: 14-3-3 protein zeta/delta (YWHAZ, Homo sapiens, UniProt P63104)
UniProt Q9H2X3, sequence (whole entry, looked up): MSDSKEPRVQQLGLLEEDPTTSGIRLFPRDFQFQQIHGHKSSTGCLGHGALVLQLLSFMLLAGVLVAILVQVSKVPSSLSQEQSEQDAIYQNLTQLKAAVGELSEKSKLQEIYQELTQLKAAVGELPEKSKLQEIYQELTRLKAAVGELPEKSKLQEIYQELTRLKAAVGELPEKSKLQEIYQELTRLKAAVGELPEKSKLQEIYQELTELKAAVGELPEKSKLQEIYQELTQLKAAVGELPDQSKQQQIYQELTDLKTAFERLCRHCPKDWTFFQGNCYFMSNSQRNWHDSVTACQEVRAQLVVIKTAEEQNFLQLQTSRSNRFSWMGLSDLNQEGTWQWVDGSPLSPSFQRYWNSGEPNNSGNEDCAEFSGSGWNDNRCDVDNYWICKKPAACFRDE
UniProt Q9H7M9, sequence (whole entry, looked up): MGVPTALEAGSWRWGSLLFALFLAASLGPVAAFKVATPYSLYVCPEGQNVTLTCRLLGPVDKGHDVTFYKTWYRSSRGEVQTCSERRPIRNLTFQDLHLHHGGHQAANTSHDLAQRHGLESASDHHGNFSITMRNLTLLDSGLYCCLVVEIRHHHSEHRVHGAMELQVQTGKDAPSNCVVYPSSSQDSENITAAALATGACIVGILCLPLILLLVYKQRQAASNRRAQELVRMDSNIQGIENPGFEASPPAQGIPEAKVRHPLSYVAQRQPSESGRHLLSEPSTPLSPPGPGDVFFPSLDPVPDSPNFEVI
UniProt P63104, sequence (whole entry, looked up): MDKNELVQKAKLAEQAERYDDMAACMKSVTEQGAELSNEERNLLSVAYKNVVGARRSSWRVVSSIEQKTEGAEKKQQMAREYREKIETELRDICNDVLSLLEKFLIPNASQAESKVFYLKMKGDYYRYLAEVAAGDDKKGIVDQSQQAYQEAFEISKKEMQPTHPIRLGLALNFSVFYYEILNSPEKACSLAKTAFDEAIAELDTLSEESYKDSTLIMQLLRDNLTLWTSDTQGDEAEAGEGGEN
UniProt P31947, sequence (whole entry, looked up): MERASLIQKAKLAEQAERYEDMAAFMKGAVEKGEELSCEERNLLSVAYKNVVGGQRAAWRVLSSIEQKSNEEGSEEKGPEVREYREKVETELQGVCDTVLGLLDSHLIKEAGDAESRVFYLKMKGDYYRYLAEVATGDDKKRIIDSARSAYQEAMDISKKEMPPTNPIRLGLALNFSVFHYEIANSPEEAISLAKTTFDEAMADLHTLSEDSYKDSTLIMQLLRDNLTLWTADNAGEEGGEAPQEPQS
UniProt P51812, sequence (whole entry, looked up): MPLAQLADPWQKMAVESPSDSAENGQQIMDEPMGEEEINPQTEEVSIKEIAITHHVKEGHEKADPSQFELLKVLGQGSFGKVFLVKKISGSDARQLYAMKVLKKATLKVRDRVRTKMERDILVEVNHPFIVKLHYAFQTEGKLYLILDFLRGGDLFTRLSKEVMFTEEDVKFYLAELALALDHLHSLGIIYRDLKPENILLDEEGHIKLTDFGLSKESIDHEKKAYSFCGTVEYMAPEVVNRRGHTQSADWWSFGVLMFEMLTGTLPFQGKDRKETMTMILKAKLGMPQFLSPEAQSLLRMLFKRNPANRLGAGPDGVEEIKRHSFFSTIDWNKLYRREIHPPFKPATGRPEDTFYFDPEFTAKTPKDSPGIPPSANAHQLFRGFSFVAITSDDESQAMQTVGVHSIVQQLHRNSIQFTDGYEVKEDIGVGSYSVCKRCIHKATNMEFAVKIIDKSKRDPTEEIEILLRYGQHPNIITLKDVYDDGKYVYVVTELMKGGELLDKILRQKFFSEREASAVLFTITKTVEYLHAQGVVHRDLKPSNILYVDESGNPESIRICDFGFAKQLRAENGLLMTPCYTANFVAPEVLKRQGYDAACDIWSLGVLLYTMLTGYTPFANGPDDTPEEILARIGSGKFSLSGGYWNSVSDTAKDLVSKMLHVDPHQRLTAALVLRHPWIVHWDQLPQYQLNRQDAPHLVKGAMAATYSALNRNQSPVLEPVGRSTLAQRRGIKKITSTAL
UniProt Q8NFZ8, sequence (whole entry, looked up): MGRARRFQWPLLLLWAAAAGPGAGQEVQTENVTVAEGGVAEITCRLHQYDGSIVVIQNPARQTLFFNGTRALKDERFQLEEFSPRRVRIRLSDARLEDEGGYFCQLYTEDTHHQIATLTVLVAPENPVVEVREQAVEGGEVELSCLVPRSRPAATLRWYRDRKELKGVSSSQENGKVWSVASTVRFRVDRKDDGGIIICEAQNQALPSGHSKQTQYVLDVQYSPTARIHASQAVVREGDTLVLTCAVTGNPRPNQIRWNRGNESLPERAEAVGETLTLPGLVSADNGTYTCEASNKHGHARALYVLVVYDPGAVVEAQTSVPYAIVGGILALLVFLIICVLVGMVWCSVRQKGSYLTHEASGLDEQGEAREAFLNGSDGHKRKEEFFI
UniProt Q14145, sequence (whole entry, looked up): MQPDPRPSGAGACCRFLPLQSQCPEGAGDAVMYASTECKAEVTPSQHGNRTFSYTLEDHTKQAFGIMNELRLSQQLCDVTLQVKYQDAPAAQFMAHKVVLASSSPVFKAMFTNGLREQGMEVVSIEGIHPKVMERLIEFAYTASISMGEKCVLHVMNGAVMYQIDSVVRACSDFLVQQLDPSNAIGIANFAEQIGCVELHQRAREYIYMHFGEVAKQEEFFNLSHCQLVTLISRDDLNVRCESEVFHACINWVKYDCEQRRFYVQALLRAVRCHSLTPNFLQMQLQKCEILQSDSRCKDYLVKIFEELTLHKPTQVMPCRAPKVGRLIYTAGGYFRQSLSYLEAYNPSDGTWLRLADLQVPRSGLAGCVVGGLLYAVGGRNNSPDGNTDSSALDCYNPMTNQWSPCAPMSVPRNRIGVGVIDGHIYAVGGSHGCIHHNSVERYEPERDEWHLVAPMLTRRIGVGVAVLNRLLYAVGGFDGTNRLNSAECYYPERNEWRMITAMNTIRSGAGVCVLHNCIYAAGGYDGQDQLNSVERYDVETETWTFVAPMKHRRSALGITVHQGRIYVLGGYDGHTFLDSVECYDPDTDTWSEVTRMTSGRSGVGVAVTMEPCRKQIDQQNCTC

The Kd of `CC(C)C[C@H](NC(=O)[C@H](CCCNC(=N)N)NC(=O)[C@H](CC(C)C)NC(=O)[C@H](CO)NC(=S)Nc1ccc2c(c1)C(=O)OC21c2ccc(O)cc2Oc2cc(O)ccc21)C(=O)N[C@@H](CCCCN)C(=O)N[C@@H](CS)C(=O)NCC(=O)N[C@@H](CCP(=O)(O)O)C(=O)NCC(=O)N1CCC[C@H]1C(=O)N[C@H](C(=O)N[C@@H](Cc1c[nH]c2ccccc12)C(=O)N[C@@H](CC(C)C)C(=O)N[C@H](C(=O)N1CCC[C@H]1C(=O)N[C@@H](CCCNC(=N)N)C(=O)O)C(C)C)C(C)C` is reported as 88500 nM (SFN (Homo sapiens, UniProt P31947); binding, fluorescence anisotropy; pH 7.5, FITC-labelled phosphopeptide titration).
`CC(C)C[C@H](NC(=O)CNC(=O)[C@H](C)NC(=O)[C@H](CC(=O)O)NC(=O)[C@H](CC(=O)O)NC(=O)[C@H](C)NC(=O)[C@@H]1CCCN1C(=O)[C@H](C)NC(=O)CNC(=O)[C@@H]1CCCN1C(=O)[C@@H]1CCCN1C(=O)[C@@H]1CCCN1C(=O)[C@H](CCC(=O)O)NC(=O)CN)C(=O)N[C@H](C(=O)O)C(C)C` has a Kd of 32000 nM (F-box only protein 22; binding, SPR).
`CSCC[C@@H]1NC(=O)[C@H](CCC(N)=O)NC(=O)[C@H](CCCCN)NC(=O)[C@@H](NC(=O)CN)CSSC[C@@H]2NC(=O)CNC(=O)[C@H](C)NC(=O)[C@H](CC(C)C)NC(=O)[C@@H]3CSSC[C@@H](C(=O)NCC(=O)O)NC(=O)[C@H](Cc4ccccc4)NC(=O)CNC(=O)[C@H](CC(N)=O)NC(=O)[C@@H]4CCCN4C(=O)CNC(=O)[C@H](CSSC[C@H](NC(=O)[C@H](CCCNC(=N)N)NC(=O)[C@H](CCC(N)=O)NC(=O)[C@H](CCCNC(=N)N)NC(=O)[C@H](CCCCN)NC(=O)[C@H](C(C)C)NC(=O)[C@H](CCC(N)=O)NC(=O)[C@H](CC(N)=O)NC1=O)C(=O)N[C@@H](CCCCN)C(=O)N[C@@H](CCC(N)=O)C(=O)N[C@@H](CC(=O)O)C(=O)N[C@@H](CO)C(=O)N[C@@H](CC(=O)O)C(=O)N3)NC(=O)[C@H](C(C)C)NC2=O` has a Kd of 20.7 nM (LRP6 E1 domain; binding, SPR; pH 7.5).
For `CCC1C[C@H]2C(=O)N[C@@H](CCC(=O)O)C(=O)N[C@@H]([C@@H](C)O)C(=O)NCC(=O)N[C@@H](CCC(=O)O)C(=O)NC(CC)CC(=O)N[C@@H](CC(=O)O)C(=O)N2C1` (stereo partly shown), the Kd was 26.4 nM (KEAP1 (Homo sapiens, UniProt Q14145); binding, MST).
For `N=C(N)NCc1cn([C@@H]2[C@@H](OCCn3cc(-c4cc(OCCOCCO)c(C#Cc5cc(OCCOCCO)c(C#Cc6cc(OCCOCCO)c(-c7cn(CCO[C@H]8O[C@H](CO)[C@@H](O)[C@H](O)[C@@H]8n8cc(CNC(=N)N)nn8)nn7)cc6OCCOCCO)cc5OCCOCCO)cc4OCCOCCO)nn3)O[C@H](CO)[C@@H](O)[C@@H]2O)nn1`, the Kd was 53.7 nM and 50.1 nM (C-type lectin domain family 4 member M, extracellular domain (CLEC4M, Homo sapiens, UniProt Q9H2X3); binding, surface binding; apparent Kd).
For `CC[C@H](C)[C@H](NC(=O)[C@H](CCC(=O)O)NC(=O)[C@H](CCCNC(=N)N)NC(=O)[C@H](C)NC(=O)[C@H](Cc1c[nH]c2ccccc12)NC(=O)[C@H](CCC(=O)O)NC(=O)[C@H](CCC(=O)O)NC(=O)[C@H](CCC(=O)O)NC(C)=O)C(=O)NCC(=O)N[C@@H](C)C(=O)N[C@@H](CCC(N)=O)C(=O)N[C@@H](CC(C)C)C(=O)N[C@@H](CCCNC(=N)N)C(=O)N[C@@H](CCCNC(=N)N)C(=O)N[C@@H](C)C(=O)N[C@@H](C)C(=O)N[C@@H](CC(=O)O)C(=O)N[C@@H](CC(=O)O)C(=O)N[C@@H](CC(C)C)C(=O)N[C@@H](CC(N)=O)C(=O)N[C@@H](C)C(=O)N[C@@H](CCC(N)=O)C(=O)N[C@@H](Cc1csc2ccccc12)C(=O)N[C@@H](CCC(=O)O)C(=O)N[C@@H](CCCNC(=N)N)C(=O)N[C@@H](CCCNC(=N)N)C(=O)N[C@@H](CCCNC(=N)N)C(N)=O`, the Kd was 4.5 nM (Induced myeloid leukemia cell differentiation protein Mcl-1 homolog, residues 152-308 (Mus musculus, UniProt P97287); binding, SPR; 0.2% DMSO).
`CC(=O)N[C@@H](CCCNC(=N)N)C(=O)N[C@H](C(=O)N1CCC[C@H]1C(=O)N[C@@H](COP(=O)(O)O)C(=O)N[C@@H](CC(C)C)C(=O)N1CCC[C@H]1C(=O)N[C@H](C)C(=O)N1CCC[C@H]1C(c1ccccc1)c1ccccc1)[C@@H](C)O` has a Kd of 4950 ± 1160 nM (YWHAZ; isothermal titration calorimetry).
`CC(C)C[C@H](NC(=O)[C@H](CCCCN)NC(=O)CNC(=O)[C@H](Cc1ccccc1)NC(=O)[C@H](CO)NC(=O)[C@H](Cc1c[nH]c2ccccc12)NC(=O)CNC(=O)[C@H]1CCCN1C(=O)[C@H](N)CC(=O)O)C(=O)N[C@@H](Cc1c[nH]cn1)C(=O)N[C@@H](Cc1c[nH]c2ccccc12)C(=O)N1CCC[C@H]1C(=O)O` has a Kd of 10 nM (VSIR (Homo sapiens, UniProt Q9H7M9); binding, microscale thermophoresis).
For `O=C(O)c1ccc(O)c(O)c1`, Kd read “no binding” (R15K mutant protein, Streptomyces coelicolor; isothermal titration calorimetry; 1.5 mM).
For `O=C1NC2(CC2)COc2ncc(F)cc2[C@H]2COCCN2c2ccn3ncc1c3n2`, “organ-to-body weight ratio” read 0.305 ± 0.041% (Sprague-Dawley rat, female, spleen; oral, 5 mg/kg/day, 4 weeks, end of treatment).
The Kd of `O=C(N[C@@H]1c2ccccc2C[C@H]1N1CCCC1)c1ccc(-c2ccnc3[nH]ccc23)nc1` is reported as 1650 nM (Ribosomal protein S6 kinase alpha-3, N-terminal kinase domain (RPS6KA3, Homo sapiens, UniProt P51812); binding, competition with immobilised ligand).
The Kd of `CC(=O)NC1C(O)OC(CO)C(OC2OC(CO)C(OC3OC(CO)C(O)C(O)C3O)C(O)C2O)C1O` (stereo not shown) is reported as 153 nM (sly (Streptococcus suis, UniProt Q55996, D469A); binding).
The Kd of `CC(C)C[C@H](NC(=O)[C@H](CCCCN)NC(=O)[C@H](Cc1c[nH]c2ccccc12)NC(=O)[C@H](Cc1ccccc1)NC(=O)[C@H](CO)NC(=O)[C@H](Cc1c[nH]c2ccccc12)NC(=O)CNC(=O)[C@@H]1CCCN1C(=O)[C@@H](N)CCCNC(=N)N)C(=O)N[C@@H](Cc1c[nH]cn1)C(=O)N[C@@H](C)C(=O)N1CCC[C@H]1C(=O)O` is reported as 160 nM (V-type immunoglobulin domain-containing suppressor of T-cell activation, IgV domain (VSIR, Homo sapiens, UniProt Q9H7M9); binding, microscale thermophoresis).
`CSCC[C@H](NC(=O)CNC(=O)[C@H](CCCNC(=N)N)NC(=O)[C@H](C)NC(=O)[C@@H](NC(=O)[C@H](CCC(N)=O)NC(=O)[C@H](Cc1ccc(OP(=O)(O)O)cc1)NC(=O)[C@H](C)NC(=O)[C@H](CS)NC(=O)[C@H](CO)NC(=O)[C@@H](NC(=O)[C@H](CC(C)C)NC(=O)[C@H](CC(=O)O)NC(=O)[C@H](CCCCN)NC(=O)[C@H](CO)NC(=O)[C@H](CO)NC(=O)c1ccc2c(c1)C(=O)OC21c2ccc(N(C)C)cc2Oc2cc(N(C)C)ccc21)C(C)C)C(C)C)C(=O)N[C@@H](CCC(=O)O)C(=O)N[C@@H](CC(=O)O)C(=O)O` has a Kd of 239 nM (Crk-like protein, SH2 domain (Homo sapiens, UniProt P46109); binding).
`CC(=O)N[C@@H](CCCNC(=N)N)C(=O)N[C@H](C(=O)N1CCC[C@H]1C(=O)N[C@@H](COP(=O)(O)O)C(=O)N[C@@H](CC(C)C)C(=O)N1CCC[C@H]1C(=O)N[C@@H](C(=O)N1CCC[C@H]1C(c1ccccc1)c1ccccc1)C(C)C)[C@@H](C)O` gave a Kd of 3360 nM (YWHAZ; binding, ITC).
`CC(=O)NC(Cc1ccc(Br)c(Cl)c1)C(=O)N[C@@H](C)C(=O)N1CCC[C@H]1C(=O)N1CCC[C@H]1C(=O)N[C@@H](CCC(=O)O)C(=O)N[C@@H](Cc1c[nH]cn1)C(=O)N[C@@H](CO)C(=O)N[C@H](C(=O)N[C@@H](C)C(N)=O)[C@@H](C)OP(=O)(O)O` (stereo partly shown): Kd “no binding” (PLK1 (Homo sapiens, UniProt P53350); binding, microscale thermophoresis).
With `CC(C)C[C@@H]1NC(=O)[C@@H]2CSSC[C@@H](C(=O)NCC(=O)O)NC(=O)[C@H](Cc3ccccc3)NC(=O)CNC(=O)[C@H](CC(N)=O)NC(=O)[C@@H]3CCCN3C(=O)CNC(=O)[C@@H]3CSSC[C@H](NC(=O)[C@H](CCCNC(=N)N)NC(=O)[C@H](CC(N)=O)NC(=O)[C@H](Cc4c[nH]cn4)NC(=O)[C@H](CCCCN)NC(=O)[C@H](CC(C)C)NC(=O)[C@H](CCCCN)NC(=O)[C@H](Cc4c[nH]cn4)NC(=O)[C@H](CC(N)=O)NC(=O)[C@H](CO)NC(=O)[C@H](CCC(N)=O)NC(=O)[C@@H](NC(=O)CN)CSSC[C@H](NC(=O)CNC(=O)[C@H](C)NC1=O)C(=O)N[C@@H](C(C)C)C(=O)N3)C(=O)N[C@@H](CCCCN)C(=O)N[C@@H](CCC(N)=O)C(=O)N[C@@H](CC(=O)O)C(=O)N[C@@H](CO)C(=O)N[C@@H](CC(=O)O)C(=O)N2` the Kd was > 1000 nM (LRP6 E1 domain; binding, SPR; pH 7.5).
With `CC[C@H](C)[C@@H]1NC(=O)[C@@H]2CCCN2C(=O)[C@H](Cc2c[nH]c3ccccc23)NC(=O)[C@H](CO)NC(=O)[C@H](Cc2c[nH]c3ccccc23)NC(=O)[C@H](CC(N)=O)NC(=O)[C@H](CCCCN)NC(=O)[C@H](CCSC)NC(=O)[C@@H]2CSCCC(=O)N3CN(CN(C3)C(=O)CCSC[C@H](NC(=O)[C@H](C)N)C(=O)N3CCC[C@H]3C(=O)N[C@@H](Cc3ccccc3)C(=O)NCC(=O)N2)C(=O)CCSC[C@@H](C(=O)N[C@H](C(=O)N[C@@H](CC(N)=O)C(=O)N[C@@H](CCCCN)C(=O)N(C)CC(=O)N(C)CC(=O)N(C)CC(=O)N(C)CC(=O)N(C)CC(=O)N(C)CC(=O)N[C@@H](CCCCNC(=O)c2ccc(C(=O)O)c(-c3c4ccc(=O)cc-4oc4cc(O)ccc34)c2)C(N)=O)[C@@H](C)O)NC(=O)[C@H](Cc2c[nH]c3ccccc23)NC1=O` the Kd was > 2000 nM (Cell adhesion molecule 4 (CADM4, Homo sapiens, UniProt Q8NFZ8); fluorescence polarization).
`CC(C)C[C@H](NC(=O)CNC(=O)[C@H](C)NC(=O)[C@H](CC(=O)O)NC(=O)[C@H](CC(=O)O)NC(=O)[C@H](C)NC(=O)[C@H](C)NC(=O)[C@H](CCCCN)NC(=O)CNC(=O)[C@@H]1CCCN1C(=O)[C@@H]1CCCN1C(=O)[C@@H]1CCCN1C(=O)[C@H](CCC(=O)O)NC(=O)CN)C(=O)N[C@H](C(=O)O)C(C)C` gave a Kd of 33000 nM (F-box only protein 22; binding, SPR).

A few entries again:
`CSCC[C@H](NC(=O)CNC(=O)[C@H](CCCNC(=N)N)NC(=O)[C@H](C)NC(=O)[C@@H](NC(=O)[C@H](CCC(N)=O)NC(=O)[C@H](Cc1ccc(OP(=O)(O)O)cc1)NC(=O)[C@H](C)NC(=O)[C@H](CS)NC(=O)[C@H](CO)NC(=O)[C@@H](NC(=O)[C@H](CC(C)C)NC(=O)[C@H](CC(=O)O)NC(=O)[C@H](CCCCN)NC(=O)[C@H](CO)NC(=O)[C@H](CO)NC(=O)c1ccc2c(c1)C(=O)OC21c2ccc(N(C)C)cc2Oc2cc(N(C)C)ccc21)C(C)C)C(C)C)C(=O)N[C@@H](CCC(=O)O)C(=O)N[C@@H](CC(=O)O)C(=O)O` has a Kd of 239 nM (Crk-like protein, SH2 domain (Homo sapiens, UniProt P46109); binding).
For `CCC1C[C@H]2C(=O)N[C@@H](CCC(=O)O)C(=O)N[C@@H]([C@@H](C)O)C(=O)NCC(=O)N[C@@H](CCC(=O)O)C(=O)NC(CC)CC(=O)N[C@@H](CC(=O)O)C(=O)N2C1` (stereo partly shown), the Kd was 26.4 nM (KEAP1 (Homo sapiens, UniProt Q14145); binding, MST).
With `CC(C)C[C@@H]1NC(=O)[C@@H]2CSSC[C@@H](C(=O)NCC(=O)O)NC(=O)[C@H](Cc3ccccc3)NC(=O)CNC(=O)[C@H](CC(N)=O)NC(=O)[C@@H]3CCCN3C(=O)CNC(=O)[C@@H]3CSSC[C@H](NC(=O)[C@H](CCCNC(=N)N)NC(=O)[C@H](CC(N)=O)NC(=O)[C@H](Cc4c[nH]cn4)NC(=O)[C@H](CCCCN)NC(=O)[C@H](CC(C)C)NC(=O)[C@H](CCCCN)NC(=O)[C@H](Cc4c[nH]cn4)NC(=O)[C@H](CC(N)=O)NC(=O)[C@H](CO)NC(=O)[C@H](CCC(N)=O)NC(=O)[C@@H](NC(=O)CN)CSSC[C@H](NC(=O)CNC(=O)[C@H](C)NC1=O)C(=O)N[C@@H](C(C)C)C(=O)N3)C(=O)N[C@@H](CCCCN)C(=O)N[C@@H](CCC(N)=O)C(=O)N[C@@H](CC(=O)O)C(=O)N[C@@H](CO)C(=O)N[C@@H](CC(=O)O)C(=O)N2` the Kd was > 1000 nM (LRP6 E1 domain; binding, SPR; pH 7.5).
